Measurements pooled from the literature.
Several values in a cell are separate wells, animals, samples, runs or records. Numbers after ± are the reported error.

`NC(=O)c1cnc2[nH]ccc2c1N[C@@H]1[C@@H]2CC3C[C@H]1C[C@@](O)(C3)C2`: “change from baseline” -0.17% (flow cytometry, refers to: CD8+ effector memory T cells; Japanese healthy subjects, peripheral blood; oral, 10 mg twice daily, day 4).
`N#Cc1ccc2c(c1)[C@H]1CCCN(C(=O)c3ccc4[nH]cnc4c3)[C@H]1C2` — result for “change in 1.5-AHG”: -8.9% (human, plasma; 80 mg, day 15, 360 h; reference: placebo and baseline).
Under “tumour growth inhibition”, `C=CCn1c(=O)c2cnc(Nc3ccc(N4CCN(C)CC4)cc3)nc2n1-c1ccc2c(n1)[C@@](O)(CC)CC2` is recorded as 67.7% (JIMT-1 xenograft, NOD/SCID mouse; oral, 60 mg/kg once daily for 28 days, day 29; reference: control).
For `Cc1oncc1C(=O)Nc1ccc(C(F)(F)F)cc1`, “blood concentration increase” read 8 fold (refers to: dihydroorotate; CD-1 mouse, female, whole blood; oral, 30 mg/kg, 8 h after first dose; reference: vehicle).
`Cn1nnc2c(C(N)=O)ncn2c1=O`: apoptotic cells “no effect” (cleaved caspase-3 staining; mouse PDGFB-driven RCAS/tv-a glioma model; dose not given, end stage).
`Cc1n[nH]c2ccc(-c3cc(OC[C@@H](N)Cc4ccccc4)cnc3-c3ccoc3)cc12` — result for “log2 fold change”: -0.237 (kinase binding, competitor, MIB/MS competition, refers to: CDC7; Candida albicans cell lysate; 1 µM; reference: DMSO).
For `CC(C)[C@H](NC(=O)[C@H](Cc1ccc(O)cc1)NC(=O)[C@H](Cc1ccc(O)cc1)NC(=O)[C@@H]1CCCN1C(=O)[C@H](CCC(=O)O)NC(=O)[C@H](CCC(=O)O)NC(=O)[C@H](Cc1c[nH]c2ccccc12)NC(=O)[C@@H]1CCCN1C(=O)[C@@H](NC(=O)[C@H](CCC(N)=O)NC(=O)c1ccc2c(c1)C(=O)OC21c2ccc(O)cc2Oc2cc(O)ccc21)C(C)C)C(=O)N[C@H](C(=O)N[C@@H](CCCCN)C(=O)N[C@@H](CCCCN)C(=O)N[C@@H](CO)C(=O)N[C@@H](CO)C(=O)NCC(=O)NCC(N)=O)C(C)C`, “share of responses” read 14.2% (surgeon confidence in nerve; human head and neck surgery, nerves; 500 mg, much improved; reference: white light).
For `CCc1c(C)nc(-c2ccc(Cl)s2)nc1Nc1ccc(CC(=O)O)cc1`, Ki67-positive hepatocytes read “decreased” (C57BL/6J mouse, MCD diet MASH model, liver; intraperitoneal, 0.3 mg/kg daily, MCD diet 6 weeks, dosed final two weeks; reference: untreated).
For `CCOc1cc([C@@H](CS(C)(=O)=O)N2C(=O)c3cccc(NC(C)=O)c3C2=O)ccc1OC`, “ear thickness difference” read -0.152 (Balb/c mice, oxazolone atopic dermatitis; day 20, unit not given; reference: vehicle).
`C[C@H](Oc1ccc(Br)cc1-c1ccon1)C(=O)O`: “difference from placebo” 8.69% (muscle velocity recovery cycle; human, tibialis anterior muscle; 400 mg once daily, first response peak at 30 Hz, multiple ascending dose).
For `C[C@@H](O)CCOC(=O)C[C@@H](C)O`, the metabolite level was -4.11 ± 0.78 µmol/L (refers to: C5-DC acylcarnitine; human, plasma; 60 min, log2-transformed values).
`C[C@H]1C[C@H]2CSC(N)=N[C@@]2(c2nc(NC(=O)c3ccc(OC(F)F)cn3)cs2)CO1`: “percent change from baseline” -70.4% (refers to: total Aβ; healthy adults, plasma; 275 mg once daily, day 10; reference: placebo).
With `O=C(OC(C(F)(F)F)C(F)(F)F)N1CCN(Cc2cccc(Oc3ccccc3)c2)CC1` the k3 was 0.085 min⁻¹ (PET blocking study; rhesus monkey, brain CB; 0.01 mg/kg, compound pretreatment, with: [18F]T-401 tracer).
For `CCCN1CCCC[C@H]1C(=O)Nc1c(C)cccc1C`, the sensory block was 100 % MPE (Sprague-Dawley rat, male; sciatic nerve injection, 15 mM).
The inhibition of `CN[C@@H]1COc2c(S(=O)(=O)NC(=O)Nc3c4c(cc5c3CCC5)CCC4)cnn2C1` is reported as 99.7% (refers to: IL-1β; human participants, whole blood ex vivo; 300 mg twice daily, multiple doses, 148 h, with: LPS/ATP; reference: baseline).
For `CCCCC1(CCCC)CN(c2ccccc2)c2cc(SC)c(OCC(=O)N[C@@H](C(=O)NCC(=O)O)c3ccccc3)cc2S(=O)(=O)C1`, the plasma C4 was 32.1 ng/mL (refers to: 7α-hydroxy-4-cholesten-3-one; human, plasma; 2.5 mg once daily, day 5).
Under “blood glucose AUC(0-96)”, `CCCCCCCCCCCCCCCC(=O)N[C@@H](CCC(=O)NCCCC[C@H](NC(=O)CCOCCOCCOCCOCCNC(=O)CCc1cn(CC(=O)N[C@@H](CCC(=O)NCCCC[C@H](NC(=O)[C@H](C)NC(=O)[C@H](C)NC(=O)[C@H](CCC(N)=O)NC(=O)CNC(=O)[C@H](CCC(=O)O)NC(=O)[C@H](CC(C)C)NC(=O)[C@H](Cc2ccc(O)cc2)NC(=O)[C@H](CO)NC(=O)[C@H](CO)NC(=O)[C@@H](NC(=O)[C@H](CC(=O)O)NC(=O)[C@H](CO)NC(=O)[C@@H](NC(=O)[C@H](Cc2ccccc2)NC(=O)[C@@H](NC(=O)CNC(=O)[C@H](CCC(=O)O)NC(=O)[C@H](C)NC(=O)[C@@H](N)Cc2cnc[nH]2)[C@@H](C)O)[C@@H](C)O)C(C)C)C(=O)N[C@@H](CCC(=O)O)C(=O)N[C@@H](Cc2ccccc2)C(=O)N[C@H](C(=O)N[C@@H](C)C(=O)N[C@@H](Cc2c[nH]c3ccccc23)C(=O)N[C@@H](CC(C)C)C(=O)N[C@H](C(=O)N[C@@H](CCCNC(=N)N)C(=O)NCC(=O)N[C@@H](CCCNC(=N)N)C(=O)NCC(=O)O)C(C)C)[C@@H](C)CC)C(=O)O)nn1)C(=O)NCCOCCOCCOCCOCCC(=O)N[C@@H](CCCCNC(=O)CC[C@H](NC(=O)CCCCCCCCCCCCCCC)C(=O)O)C(=O)OC)C(=O)O` is recorded as 7800 ± 572% (db/db mouse; subcutaneous, 100 nmol/kg single, 0 to 96 h; reference: baseline).
Under “log2 fold change”, `N#Cc1ccc2c(-c3ccncc3)c(-c3ccc(F)cc3)nn2c1` is recorded as -0.172 (kinase binding, competitor, MIB/MS competition, refers to: RIM8; Candida albicans cell lysate; 1 µM; reference: DMSO).
`N#CCC(=O)Nc1ccc(C2CCCCC2)cc1` has a hepatic clearance of 8.2 mL/min/kg (liver microsome stability; human liver microsomes; 1 µM, without NADPH).
`O=C(O)CNC(=O)Cc1ccccc1` gave a sarcomere length of 1.72 µm (ventricular cardiomyocytes, C57BL/6 mouse; dose not given, 0.74 s).
`OC(CCN1CCCCC1)(c1ccccc1)C1CC2C=CC1C2` (stereo not drawn) — result for “EEG power, delta, Fz-Cz”: 6.5 µV² (resting-state EEG; healthy elderly humans; oral, 2 mg, eyes closed, LS mean).
`O=C1Nc2ccccc2C1=Cc1ccccn1` — result for “occlusion time prolongation”: 114% (ferric chloride carotid thrombosis; rat; oral, 11.2 mg/kg, 2 h before thrombosis).
For `CC(C)C[C@H](NC(=O)[C@@H](Cc1c[nH]c2ccccc12)NC(=O)[C@H](Cc1ccc(O)cc1)NC(=O)[C@H](CO)NC(=O)[C@H](Cc1c[nH]c2ccccc12)NC(=O)[C@H](Cc1c[nH]cn1)NC(=O)[C@@H]1CCC(=O)N1)C(=O)N[C@@H](CCCNC(=N)N)C(=O)N1CCC[C@H]1C(=O)NCC(N)=O`, “girls at breast stage” read 6.5% (Chinese girls, central precocious puberty; intramuscular, 22.5 mg day 1, month 6, month 6, Tanner stage IV).
`N#Cc1ccn2c(-c3ccncc3)c(-c3ccc(F)cc3)nc2c1` — result for “log2 fold change”: -0.146 (kinase binding, competitor, MIB/MS competition, refers to: YPK1; Candida albicans cell lysate; 100 nM; reference: DMSO).
`CC(C(=O)Nc1ccc([C@H]2[C@@H](F)[C@@H](F)C[C@@H](F)[C@H]2F)cc1)n1cncn1` (stereo partly drawn) has a hepatic clearance of 6.1 mL/min/kg (rat liver microsomes; 1 µM).
Under “ear thickness difference”, `N#Cc1ccc(Oc2ccc3c(c2)COB3O)cc1` is recorded as -0.25 (Balb/c mice, oxazolone atopic dermatitis; day 20, unit not given; reference: vehicle).
`N#Cc1ccc2c(c1)[C@H]1CCCN(C(=O)c3ccc4[nH]cnc4c3)[C@H]1C2`: “change, HOMA-beta, from baseline” 9.5% (human, Phase II trial; oral, 20 mg once daily, day 28, adjusted mean, SE).
Under “hepatic total cholesterol”, `C[C@H]1O[C@@H](O[C@H]2CC[C@@]3(C)[C@@H](CC[C@]4(C)[C@@H]3C=C[C@]35OC[C@@]6(CCC(C)(C)C[C@H]63)[C@@H](O)C[C@]54C)[C@]2(C)CO)[C@H](O)[C@@H](O[C@@H]2O[C@H](CO)[C@@H](O)[C@H](O)[C@H]2O)[C@H]1O` is recorded as 0.0915 mmol/g protein and 0.0875 mmol/g protein and 0.0625 mmol/g protein and 0.0738 mmol/g protein and 0.076 mmol/g protein and 0.0719 mmol/g protein (Mus musculus, pair-fed control, liver; oral, 15 mg/kg/day).
The PT AUEC of `C[C@@H](NC(=O)N1C(=O)[C@H](Cc2ccnc(N)c2)[C@H]1C(=O)O)C1CCCCC1` is reported as 1850 h·s (human; iv infusion, 1.5 mg/kg/h, 24 h).
For `c1ccc(-c2n[nH]cc2-c2ccnc3ccccc23)nc1`, “log2 fold change” read 1.01 (kinase binding, competitor, MIB/MS competition, refers to: ENV7; Candida albicans cell lysate; 100 nM; reference: DMSO).
Under “inhibition of platelet aggregation”, `CSCCNc1nc(SCCC(F)(F)F)nc2c1ncn2[C@@H]1O[C@H](COP(=O)(O)OP(=O)(O)C(Cl)(Cl)P(=O)(O)O)[C@@H](O)[C@H]1O` is recorded as 19.4 ± 21.4% (light transmittance aggregometry; human patients, platelet-rich plasma; dose not given, 3 h, with: ADP 5 µM).
`Cc1ccc(C(=O)Nc2ccnc(S(N)(=O)=O)c2)c(N2CCCC(F)(F)CC2)n1`: capsaicin flare “decreased” (rhesus macaque; intravenous, 0.4 mg/kg; reference: vehicle).
`Cn1cc(Nc2nccc(-c3ccc4c(c3)CN(C3COC3)CC[C@H]4NC(=O)c3cn(C(C)(C)C)nn3)n2)cn1`: “pathway activation z-score” 0.218 (refers to: Insulin Receptor Signaling; splenic B cells, mouse; in vivo, 30 mg/kg, IgD-activated B cells; reference: vehicle, positive = activation).
The sarcomere length of `CC(C)NCC(O)c1ccc(O)c(O)c1` (stereo not drawn) is reported as 1.72 µm (ventricular cardiomyocytes, C57BL/6 mouse; dose not given, 0.636 s).
`Cn1cc([C@H]2C[C@H]3CSC(N)=N[C@@]3(c3ccc(F)cc3F)CO2)cn1` gave an Aβ42 level of 0.31 ng/g (refers to: Aβx-42; Mus musculus wild-type, brain; subcutaneous, 50 mg/kg, 13 h).
The EC50 of `CC1(C)CCC(CN2CCN(c3ccc(C(=O)NS(=O)(=O)c4ccc(NCC5CCOCC5)c([N+](=O)[O-])c4)c(Oc4cnc5[nH]ccc5c4)c3)CC2)=C(c2ccc(Cl)cc2)C1` is reported as 1270 nM (cell killing; primary canine neoplastic B cells, dog 40; 24 h).

A few entries again:
`N#Cc1ccc2c(c1)[C@H]1CCCN(C(=O)c3ccc4[nH]cnc4c3)[C@H]1C2`: “change, HOMA-beta, from baseline” 9.5% (human, Phase II trial; oral, 20 mg once daily, day 28, adjusted mean, SE).
Under “hepatic total cholesterol”, `C[C@H]1O[C@@H](O[C@H]2CC[C@@]3(C)[C@@H](CC[C@]4(C)[C@@H]3C=C[C@]35OC[C@@]6(CCC(C)(C)C[C@H]63)[C@@H](O)C[C@]54C)[C@]2(C)CO)[C@H](O)[C@@H](O[C@@H]2O[C@H](CO)[C@@H](O)[C@H](O)[C@H]2O)[C@H]1O` is recorded as 0.0915 mmol/g protein and 0.0875 mmol/g protein and 0.0625 mmol/g protein and 0.0738 mmol/g protein and 0.076 mmol/g protein and 0.0719 mmol/g protein (Mus musculus, pair-fed control, liver; oral, 15 mg/kg/day).
The PT AUEC of `C[C@@H](NC(=O)N1C(=O)[C@H](Cc2ccnc(N)c2)[C@H]1C(=O)O)C1CCCCC1` is reported as 1850 h·s (human; iv infusion, 1.5 mg/kg/h, 24 h).
For `c1ccc(-c2n[nH]cc2-c2ccnc3ccccc23)nc1`, “log2 fold change” read 1.01 (kinase binding, competitor, MIB/MS competition, refers to: ENV7; Candida albicans cell lysate; 100 nM; reference: DMSO).
